Measurements pooled from the literature.
Each line is one published result; not all experiments were run side by side. ± gives the spread as reported. In brackets after ≈: the same amount, converted by molar mass.

Amino acid sequences for entries named in this document (tags omitted).
UniProt P20309, whole entry: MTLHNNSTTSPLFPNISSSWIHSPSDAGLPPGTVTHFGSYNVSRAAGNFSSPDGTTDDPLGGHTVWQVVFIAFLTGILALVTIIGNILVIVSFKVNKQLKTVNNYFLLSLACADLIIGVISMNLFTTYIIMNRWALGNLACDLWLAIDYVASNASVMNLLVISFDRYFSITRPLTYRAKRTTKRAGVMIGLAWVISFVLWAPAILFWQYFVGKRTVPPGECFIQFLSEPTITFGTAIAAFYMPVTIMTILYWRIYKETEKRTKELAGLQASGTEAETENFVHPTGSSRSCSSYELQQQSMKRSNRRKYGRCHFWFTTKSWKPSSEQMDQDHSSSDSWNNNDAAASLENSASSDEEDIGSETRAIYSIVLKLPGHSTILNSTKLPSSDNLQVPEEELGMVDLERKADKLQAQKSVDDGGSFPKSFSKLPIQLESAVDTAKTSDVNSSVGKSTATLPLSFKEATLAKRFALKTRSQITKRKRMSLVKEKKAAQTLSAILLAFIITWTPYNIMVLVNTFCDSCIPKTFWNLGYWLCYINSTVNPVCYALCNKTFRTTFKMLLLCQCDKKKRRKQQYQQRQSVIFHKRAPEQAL

C[C@H](Cc1ccc(O)c(O)c1)[C@@H](C)Cc1ccc(O)c(O)c1
amount in dermis (human skin; 3% solution, 8 h, skin UV-treated 20 min): 8.87 ± 1.21 µg

Cn1c(COc2ccc3nc4ccc(=O)cc-4oc3c2)cnc1[N+](=O)[O-]
MIC90 (Mycobacterium tuberculosis; mc2 6206 PA-824-resistant ddn mutant; 7 days): > 256 µM

CC#C/C(=N\OC[C@H]1COCCN1)c1ccc2ncnc(Nc3ccc(OCc4cccc(F)c4)c(Cl)c3)c2c1
IC50 fold shift (NCI-N87; cell growth; added: 2% albumin or 0.08% AGP; reference: with over without protein): 2.9 to 4.4 fold

O=c1ccc2nc3ccc(OC4CCCC4)cc3oc-2c1
MIC90 (Mycobacterium tuberculosis; mc2 6206 bedaquiline-resistant MmpL5 regulator mutant; 7 days): 13 µM (≈ 3.66 µg/mL)

CC(C)Cc1nnc2c(C(=O)NC3c4ccccc4-c4ccccc43)cccn12
MIC ratio (Escherichia coli; broth microdilution; MB5746 rpoZ Δ21-91 frameshift; reference: mutant over wild type): > 32

CCN(CC)C(=O)Oc1ccc(C(=O)Nc2cccc3cc[nH]c23)cc1
charge transfer (NMDA receptor EPSC, inhibitor, whole-cell patch clamp; CA1 pyramidal neurons, mouse, hippocampal slices; 10 µM; reference: control): 105 ± 6.2%

Cc1ccc(S(=O)(=O)N(C)CC(=O)N(Cc2ccc(C3CCCCC3)cc2)c2ccc(C(=O)O)c(O)c2)cc1
DNA-binding activity (STAT5 homodimer (mouse); EMSA, item: MGFe probe; NIH3T3/hEGFR nuclear extracts; up to 300 µM, added: EGF): no effect

O=c1ccc2nc3ccc(O)cc3oc-2c1
MIC90 (Mycobacterium tuberculosis; mc2 6206 PA-824-resistant ddn mutant; 7 days): > 256 µM

CCCN1CCN(c2ccc3c(c2)C2CC3CCN2C(=O)OCc2ccccc2)CC1 (stereo not drawn)
Ki (CHRM3 (Homo sapiens, UniProt P20309); binding, radioligand binding): 1.11 µM

Cc1cc(C(=O)O)ccc1-c1c2ccc(=O)cc-2oc2cc(OCc3ccc([N+](=O)[O-])o3)ccc12
MIC90 (Mycobacterium tuberculosis; mc2 6206 bedaquiline-resistant MmpL5 regulator mutant; 7 days): 24 µM (≈ 11.3 µg/mL)

CCCCCCC1c2ccc(O)cc2Oc2cc(O)ccc21
MIC (Salmonella Typhimurium; SL1344; added: NAB7061 4 µg/mL): 1.6 µg/mL (≈ 5.36 µM)

CCN1CCN(Cc2ccc(NC(=O)c3ccc(C)c(/C=C/c4cnc5[nH]ccc5c4OC)c3)cc2C(F)(F)F)CC1
log2 fold change (ETV6-SYK fusion; kinase-CDC37 interaction, cell-based kinome screen; 5 µM; reference: vehicle): 0.362

CSc1nc(Cl)cc(Sc2nnc(-c3cc(C(F)(F)F)cc(C(F)(F)F)c3)[nH]2)n1
MIC (Escherichia coli; prlD mutants; 37 °C, azide resistant or supersensitive, added: polymyxin B nonapeptide 25 µg/mL): 0.7 to 3 µg/mL (≈ 1.48 to 6.36 µM)

CC[C@H](C)[C@@H]1NC(=O)[C@H](CCC(=O)O)NC(=O)[C@@H]2CCCN2C(=O)[C@H](Cc2c[nH]cn2)NC(=O)[C@H](CC(=O)O)NC(=O)[C@H](Cc2ccc(O)cc2)NC(=O)[C@H](CC(N)=O)NC(=O)[C@@H]2CSSC[C@@H]3NC(=O)CNC(=O)CNC(=O)CNC(=O)[C@H](C)NC(=O)[C@H](C)NC(=O)CNC(=O)CNC(=O)[C@H](CSSC[C@H](NC3=O)C(=O)N[C@@H](CO)C(=O)N[C@@H](CC(=O)O)C(=O)N3CCC[C@H]3C(=O)N[C@@H](CCCNC(=N)N)C(=O)N2)NC1=O
inhibition (Cav2.1 rabbit; Ba2+ current; 200 nM): 20 ± 4%

CCC(C)C1NC(=O)/C(=C(/C)O)C1=O (stereo not drawn)
root growth (Arabidopsis thaliana; Col-0, seedlings on agar; 20 µM, 6 d): 0.1 cm

For quick reference, copied from above:
CC[C@H](C)[C@@H]1NC(=O)[C@H](CCC(=O)O)NC(=O)[C@@H]2CCCN2C(=O)[C@H](Cc2c[nH]cn2)NC(=O)[C@H](CC(=O)O)NC(=O)[C@H](Cc2ccc(O)cc2)NC(=O)[C@H](CC(N)=O)NC(=O)[C@@H]2CSSC[C@@H]3NC(=O)CNC(=O)CNC(=O)CNC(=O)[C@H](C)NC(=O)[C@H](C)NC(=O)CNC(=O)CNC(=O)[C@H](CSSC[C@H](NC3=O)C(=O)N[C@@H](CO)C(=O)N[C@@H](CC(=O)O)C(=O)N3CCC[C@H]3C(=O)N[C@@H](CCCNC(=N)N)C(=O)N2)NC1=O
inhibition (Cav2.1 rabbit; Ba2+ current; 200 nM): 20 ± 4%
